Published values pooled from the literature.
Every numbered part comes from another study and shows a few of its results, in no order.

Study 1 — method: RNA Bind-n-Seq; form: RNA; matrix: in vitro; concentration: 200 nM; setting: whole 134-nt RNA, ends assumed; together with: 150 mM LiCl; reference: input library; reading: higher = stronger binding; library: 7-deaza-guanosine replaces G
Target: Ras GTPase-activating protein-binding protein 1, full length (G3BP1, Homo sapiens, UniProt Q13283)
Sequence of UniProt Q13283 (whole entry, looked up): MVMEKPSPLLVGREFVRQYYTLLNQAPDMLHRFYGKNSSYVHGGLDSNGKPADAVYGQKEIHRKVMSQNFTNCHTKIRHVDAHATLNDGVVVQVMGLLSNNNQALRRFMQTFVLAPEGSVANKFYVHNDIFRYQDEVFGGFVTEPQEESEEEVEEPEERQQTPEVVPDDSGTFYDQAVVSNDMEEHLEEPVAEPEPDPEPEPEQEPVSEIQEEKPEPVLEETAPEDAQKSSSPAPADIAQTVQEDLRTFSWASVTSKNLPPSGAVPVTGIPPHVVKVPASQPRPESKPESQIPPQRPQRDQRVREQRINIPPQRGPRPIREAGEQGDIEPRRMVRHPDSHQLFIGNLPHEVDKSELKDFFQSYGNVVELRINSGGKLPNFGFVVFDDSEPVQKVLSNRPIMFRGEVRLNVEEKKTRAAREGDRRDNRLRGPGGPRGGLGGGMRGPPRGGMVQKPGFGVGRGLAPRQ
Strand | log2 enrichment
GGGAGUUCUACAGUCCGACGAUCCACAGACAACACGCAACCACACAGACACAGAGGGAAGGGGUUGGGAUGGGGACAGGGUGCACAGCAGGGCGGGGUAGGACCCCAGCCCCUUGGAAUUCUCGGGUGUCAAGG | 0.438
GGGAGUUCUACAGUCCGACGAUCAAAAAAAGUGUGUAUUAGGAGGAGAGAGAGGAAAAAAAGAGGAAAGAAGGAAAAAAAAAAGAAUUAAAAAAAAAAAAAAGAAAAACAGAAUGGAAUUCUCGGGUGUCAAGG | 0.436
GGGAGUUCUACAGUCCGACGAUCUUAAGACAGUCAUUUUAAAAUGGUGGCUGAAUUUCCCAACCCACCCCCAAACUAAACACUAAGUUUAAUUUUCAGCUCCUCUGUUGGACAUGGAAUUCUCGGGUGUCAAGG | 0.632
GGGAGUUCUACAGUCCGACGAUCCCUGUGCUACACAUCGUAUGUACCGAAUCGGGGAAAAAAAGGGGAAAAAGGGGUUUGGGGAAAGUAUUAUGUUACGCCGUUCGGAUCUGCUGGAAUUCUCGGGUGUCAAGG | -0.147
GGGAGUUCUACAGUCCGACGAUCACCAUGCAGGUGGGCAUCUUUGGGAAGUGGGGCAAGGGGGGGAUAGGGAGGGGGGUAACACUUUGGGAACAGGUGGUCCCAGGUCGAUUCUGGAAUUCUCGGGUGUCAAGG | 0.215
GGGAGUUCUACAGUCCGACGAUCUUUUAAAGUGUUCUCCACCACACUUGGGCAUUUAUCUGUUUCUUUAAAUGGCCUUCUCUGUUUCUUGUUUGCAGGCAGCUAUCAAUGGUGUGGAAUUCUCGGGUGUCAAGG | 0.771
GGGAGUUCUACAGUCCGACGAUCUUUCUCUCACCAGGUACCAGGUCAUCAGUACACCAUCUGAUAUUUUCAUGGUGAUGGAAUAUGUCUCAGGAGGAGAGCUAUUUGAUUAUAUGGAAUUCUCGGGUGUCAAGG | 0.344
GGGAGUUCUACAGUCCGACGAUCUGGGAGGUGGAUUUUGUUUAUUUUUUUAGCUCGUUUCCAGGGGUGGGAAUUUUUUUUUAAUAUGUGUCAUGAAUAAAGUUGUUUUUGAAAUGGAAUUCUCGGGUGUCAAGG | 0.235

Study 2 — method: protein binding microarray; form: double-stranded DNA, one strand shown; matrix: in vitro; concentration: not given; reference: not given; reading: higher = stronger binding
Target: Histone acetyltransferase KAT6A, winged helix 1, GST fusion (KAT6A, Homo sapiens, UniProt Q92794, residues 1-85)
Setting: 8-mer, flanks averaged, mean of 2 arrays, mostly near background
Target sequence (chain): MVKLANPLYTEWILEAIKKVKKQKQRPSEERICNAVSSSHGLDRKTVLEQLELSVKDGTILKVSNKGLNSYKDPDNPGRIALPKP
Strand | E-score
GCTAGTGA | -0.0407
ACGCAAGC | 0.117
AAATGACA | -0.209
CAAGAGGA | -0.194
ACGGGATA | 0.109
GGTGAAAC | -0.00972
CGGTGATC | 0.0275
CGCCGTGC | 0.388
AACTCTAT | -0.163
GGTCATAA | -0.112
CACGCGGG | 0.325
CCCTGTGC | -0.00137
GAGGACTA | 0.06
ACCACCAC | -0.197
GAACGACA | -0.228
TAATCGAA | -0.0188
AACACTTA | -0.169
GCGGCGTA | 0.403
CGAAAAAG | 0.0363
CGTTGACC | 0.0317
GGCTGAAA | 0.0215
TCTGTCCA | -0.144
ATGTGTGG | -0.235
CATGCGTA | 0.204
ATTGCTAG | -0.0685

Study 3 — method: RNA Bind-n-Seq; form: RNA; matrix: in vitro; concentration: 365 nM; reference: no-protein control; reading: higher = stronger binding
Target: RNA binding protein fox-1 homolog 2, RRM domain, GST-SBP tag (RBFOX2, Homo sapiens, UniProt O43251-10, residues 100-194)
Setting: natural RNA segment, single round, ends assumed
Target sequence (chain): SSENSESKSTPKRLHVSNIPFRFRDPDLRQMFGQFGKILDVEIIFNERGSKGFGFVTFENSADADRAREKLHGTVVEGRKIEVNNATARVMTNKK
Strand | RBNS enrichment (R)
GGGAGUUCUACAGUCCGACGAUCAUGUAAAUGCUCCAUGUUCCUGUACACUGUCUCCUUUUGGAGCAUCUCUGAAUGGAGCAUGGCUGUUUUCAUCUCACUGCUGUAUUCCAGAUGCUGCCCACAAAUGCUCCUGGAAUUCUCGGGUGCCAA | 0.205
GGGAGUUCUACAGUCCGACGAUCAGAUAUUUUUCUGAGAGAUAACUUUAGUUUGCAAUUUGUAAGUGAAACUGAAUCGUGGGUGCAUUUCAGAAGAGAACGUUCCAUAUAAUGCAGCUAACCAAGGACUCCUGUGGAAUUCUCGGGUGCCAA | 0.763
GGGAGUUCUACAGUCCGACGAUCGGUGGAGGUGUUAUUUGUGCUUUAGAAGAUACUUGCUGUUGGCUGGGCUACUGUAUACAGUGUACAAUGUGUAUUUCUUCAACCAUAUAUUUUAAAAAGACGUACAUAGAUGGAAUUCUCGGGUGCCAA | 0.551
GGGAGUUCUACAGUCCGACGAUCAAAGACACUUAAGAAGAUGAAAUAAUAUUCAAAUUUCAUUUUUUCCUUUUUCCAUUUAUCUGUGGAAACCAACAGAUAUUGCUCUAUAUUUUUUGUAUUAGUAUGGUUUGUGGAAUUCUCGGGUGCCAA | 0.445
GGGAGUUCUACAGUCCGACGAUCAGAAAAGCCUGAACUAUUUAUUCAAAACAUGACCACUCUGGGCUAUAGAAGAUGCUGAGUGUGUUUGAGAGACUGACAUACAUAAUAGAUGACUUCCUAGGGUUCUGAAAUGGAAUUCUCGGGUGCCAA | 0.722
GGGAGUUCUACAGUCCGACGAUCAAAAAUCUAUCUUUGAUACAUUUUAUUUUUAUGCCCUACUUAAUAUUUGCAUCAGUAUAAUAUAUAUCAGUGUGUCAUACAGAAAGAUAUGCUUCUGUAAUAUGAAAUAGUGGAAUUCUCGGGUGCCAA | 0.645
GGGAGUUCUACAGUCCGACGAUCUUGCUUAGUGUCCAUCUCAUUUCUUGAUCAAAGCCACUUUAGUGAGAAAUAGGUACCAGUCCUCAGGACGAGCCAGGAUCCCUCAGGGGAGAGGGCAGACGAUGCCUGGGUGGAAUUCUCGGGUGCCAA | 0.249
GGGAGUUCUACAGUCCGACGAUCGACCUGAUAAUGUUUCUAAGAAAAAGAAAAAAAGGACAAAAGGGAGGGAACCACUACCAAAAAAAAAAAAAGAAACUCCUCCCCGAAGACACUUUAAUGAAGGAAACAACUGGAAUUCUCGGGUGCCAA | 0.477
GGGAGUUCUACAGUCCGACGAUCUCAUGAGAAUGUGGAUGUACAAGUGUAAAAACAGGAAUGUACUAUCUCUCCUGAGCAGAUUGCCUGAUGGGAUUGACAAGGAGGCUCAUUGGGUUGUGGUUUGAACAUCGUGGAAUUCUCGGGUGCCAA | 0.822
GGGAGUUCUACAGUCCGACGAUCUUAUUUACCCAUACGUAUAUUUUAUGACCAUGAGCUAAGUUGUUAUUUCUUUCAUUCAUAUCCCUGCUGAAAUAUUGGUACUAGCAACUUAAAGUUGGCAAGUCUCAUCUUGGAAUUCUCGGGUGCCAA | 0.411
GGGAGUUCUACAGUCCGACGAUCGGGAUUCAUAAGGAGAAAACAGCGUCUGGCAGGCAUGGCAGAAAGUGCUGUUAAGCAUUAGCUGGCUUCCUUGUUCAUUGUUCCAAGAGAUGGGUGUGGAGAGACGGCUUUGGAAUUCUCGGGUGCCAA | 0.354
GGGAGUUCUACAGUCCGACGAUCCCACCUCCCAUCUGCUGCCCGGAAGGCACUGAGCAGACAGCUUCAGUAUUCAGCGAGCACGCGAACCCACGCUUCUUACCUUUACCUUGAGCUGGGACUGGCUUGGGGCUUGGAAUUCUCGGGUGCCAA | 0.758

Study 4 — method: universal PBM; form: double-stranded DNA, one strand shown; matrix: in vitro; concentration: not given; reading: higher = stronger binding
Target: Sal-like protein 4, full length isoform B (SALL4, Homo sapiens, UniProt Q9UJQ4-2, residues 1-616)
Setting: 8-mer, flanks averaged, mean of replicates
Strand | E-score
TATTGTCA | 0.268
GTGTCTTA | 0.0544
ATCATGCC | 0.117
AGCCTAAG | -0.0998
ATAATAAC | 0.437
ATAGAGCC | -0.0952
TTGAGAAA | 0.264
GACTACAA | 0.0546
AACATGTG | 0.194
CGGTTACC | -0.272
CGCCAGAC | -0.201
ACTTTCAC | 0.127
GTGTCCCA | -0.297
ATGCCGGC | -0.162
ATTTGTGA | 0.21
ACACTCGC | -0.159
CTATCCAG | -0.0517
GGGCAGAC | -0.241
ACCAACGG | -0.274
AGACCGCC | -0.145
CGACCCTC | -0.111
GCGTGGGA | -0.146
AAACAATA | 0.344
CTTACCGA | -0.0107
CCCGAATA | 0.112

Study 5 — method: protein-binding microarray; form: double-stranded DNA, one strand shown; matrix: in vitro; concentration: 2200 nM top; setting: 60-bp whole probe; together with: salmon DNA 0.4 mg/ml; reference: random background probes; reading: higher = stronger binding; shared flanks, not repeated: GCCTAGCAC … GTCTTGATTCGCTTGACGCTGCTG
Target: Interferon regulatory factor 7, full length, phosphomimetic (IRF7, Homo sapiens, UniProt Q92985, residues 1-503, S471D/S472D/S475D/S476D/S477D/S483D/S484D/S487D)
Target sequence (chain): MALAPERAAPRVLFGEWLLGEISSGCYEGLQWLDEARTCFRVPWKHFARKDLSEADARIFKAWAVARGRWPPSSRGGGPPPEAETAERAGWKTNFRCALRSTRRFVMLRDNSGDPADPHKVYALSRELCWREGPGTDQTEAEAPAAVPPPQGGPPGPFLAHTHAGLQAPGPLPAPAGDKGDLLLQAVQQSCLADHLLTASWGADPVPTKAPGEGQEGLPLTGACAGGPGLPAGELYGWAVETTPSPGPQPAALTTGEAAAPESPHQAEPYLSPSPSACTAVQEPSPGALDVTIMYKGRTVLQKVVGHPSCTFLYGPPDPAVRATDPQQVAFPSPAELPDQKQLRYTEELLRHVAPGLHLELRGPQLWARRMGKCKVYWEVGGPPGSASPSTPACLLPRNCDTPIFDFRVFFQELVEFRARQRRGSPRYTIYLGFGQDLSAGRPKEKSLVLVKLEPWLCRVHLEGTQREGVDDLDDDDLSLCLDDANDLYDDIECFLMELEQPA
Strand | fitted relative affinity
GACGATATCAGTATCAAGACGTGCTAG | 0.168 z-score
TCAGGTTTCGGGTTTCGGTTAGTGCTA | 11.2 z-score
GACGATTCCAGTTTCGAGGCGTGCTAG | 3.4 z-score
GACGGTATCCTACTCCTGACGTGCTAG | 0.993 z-score
TTAGTTTTCATTATTGTGTCGTGCTAG | 2.49 z-score
TCATCCCTTTCTCTCTGACTGTGCTAG | 2.81 z-score
GACGGACTGGCCACTGGGGACGTGCTA | -1.26 z-score
ATAGGACTGGGTATCGGTTAGTGCTAG | 0.0546 z-score
TTAGGACTGGCCTATCGGTTAGTGCTA | -0.547 z-score
GACGGCCTCGGTTTCGGGACGTGCTAG | 2.79 z-score
CTGCTTGAAACTCTTACCCCGTGCTAG | 0.245 z-score
TCAGCTCTCTGGACTGTGACTGTGCTA | 0.52 z-score
TTGCTTCCCAATTCTCTTTTCGTGCTA | 2.49 z-score
TTAGTTCTCGGTATCGGTTAGTGCTAG | 1.77 z-score
TTAGATTTCAGACCGGATTAGTGCTAG | -0.0792 z-score

Some of these lines once more (study 2):
Strand | E-score
GCGGCGTA | 0.403
ATGTGTGG | -0.235
GCTAGTGA | -0.0407
CGGTGATC | 0.0275
ACCACCAC | -0.197
ATTGCTAG | -0.0685
TCTGTCCA | -0.144
